Published values from different studies.
Each line is one published result; not all experiments were run side by side. Numbers after ± are the reported error.

CC(C)Nc1ccnc(Nc2cccc(-c3cccnc3)c2)n1  blood chemistry (item: Creatinine; mouse, blood; intraperitoneal, 10 mg/kg): 0.3 mg/dL
O=c1ccc2ccc3occc3c2o1  accuracy (three freeze-thaw cycles; rat plasma; 200 ng/mL, -70 °C freeze): 92.2%
CC(C)[C@@H]1NC(=O)CNC(=O)[C@H](CC(N)=O)NC(=O)[C@H](CCCNC(=N)N)NC(=O)[C@H](Cc2ccc(O)cc2)NC(=O)[C@H](C(C)C)NC(=O)[C@@H](NC(=O)[C@@H](NC(=O)[C@H](CC(N)=O)NC(=O)[C@H](Cc2c[nH]c3ccccc23)NC(=O)[C@H](C)NC(=O)[C@H](Cc2ccccc2)NC(=O)CN)C(C)C)CSSC[C@@H](C(=O)N[C@@H](Cc2cnc[nH]2)C(=O)N[C@@H](CCCNC(=N)N)C(=O)N[C@@H](CCCNC(=N)N)C(=O)N[C@@H](C)C(=O)N[C@@H](CC(N)=O)C(N)=O)NC(=O)[C@H](C(C)C)NC(=O)[C@H](CCCNC(=N)N)NC1=O  blood urea nitrogen (ICR mouse, serum; ip, 5 mg/kg, 3 d dosing, blood day 5): 9.97 ± 0.52 mmol/L
O=C(O)CCCOc1ccc(F)cc1-c1cc(-c2ccccc2C(F)(F)F)n(-c2ccccc2)n1  relative organ weight (female Crl:CD(SD) rats, heart; intravenous, 25 µg/kg, 1 d): 0.37 ± 0.03 g%
CO[C@H]1C[C@@H]2CC[C@@H](C)[C@@](O)(O2)C(=O)C(=O)N2CCCC[C@H]2C(=O)O[C@H]([C@H](C)C[C@@H]2CC[C@@H](OC(=O)NCCOCCOCCOCCOCCOCCOCCOCCOCCC(=O)N3CCc4cc(Cn5nc(-c6ccc7oc(N)nc7c6)c6c(N)ncnc65)ccc4C3)[C@H](OC)C2)C[C@@H](O)[C@H](C)/C=C(\C)[C@@H](O)[C@@H](OC)C(=O)[C@H](C)C[C@H](C)/C=C/C=C/C=C/1C  Pneumonia AE leading to dose reduction (patients with advanced solid tumours; intravenous, 1.6 mg/3 mg weekly, any grade): 0%
C[C@]1(O)C[C@@](N)(c2ccc(-c3nc4n(c3-c3ccccc3)COc3ccncc3-4)cc2)C1  patients with Diarrhea TEAE (human, advanced or metastatic solid tumours; dose not given, all patients, any grade): 23.5%
COc1cc2c(Oc3ccc4[nH]c(C)cc4c3F)ccnc2cc1OCC1(N)CC1  grade 3 ALP elevation (paediatric recurrent refractory sarcoma; 8 mg): 0%
CC(C)(O)c1cc(Nc2cc(Oc3cn(C4CC4)nc3C3CCOCC3)ccn2)ccn1  treatment-emergent adverse events (Nausea; advanced cancer patients, dose escalation; oral, dose not given, 2 weeks on/off, all causality grade ≥3): 3%
C=CCNc1c(O)cc2c(O)c1C[C@@H](C)C[C@H](OC)[C@H](O)[C@@H](C)/C=C(\C)[C@H](OC(N)=O)[C@@H](OC)/C=C\C=C(/C)C(=O)N2  patients with infusion site pain (unresectable or metastatic STS, GIST, other; intravenous, 90 mg/m^2): 33%
O=C(Nc1ccccc1)C1CCN(C(=O)Oc2cccnc2)CC1  adverse event Agitation (healthy women; oral, 100 mg, 9 days): 0%
C[C@@H](NC(=O)N1C(=O)[C@H](Cc2ccnc(N)c2)[C@H]1C(=O)O)C1CCCCC1  abnormal liver function leading to discontinuation (healthy adult Chinese volunteers; continuous intravenous infusion, 0.6 mg/kg/h, 5-day infusion, CTCAE 5.0 grading): 12.5%
C[C@]1(CO)Cc2ncn(-c3ccc(C#N)c(Cl)c3)c2C(=O)O1  drug-related Dizziness incidence (healthy humans; 10 mg, fed): 0%
COc1nnc2ccc(N3CCC(c4ccc(OCCN5CCN(C)C(=O)[C@H]5C)cc4)CC3)nn12  serious TEAE (relapsed/refractory solid tumour or lymphoma patients; oral, dose not given): 20.6%
CCCCCOc1ccc(-c2ccc(-c3ccc(C(=O)N[C@H]4C[C@@H](O)[C@@H](OCC[N+](C)(C)C)NC(=O)[C@@H]5[C@@H](O)[C@@H](C)CN5C(=O)[C@H]([C@@H](C)O)NC(=O)[C@H]([C@H](O)[C@@H](O)c5ccc(O)cc5)NC(=O)[C@@H]5C[C@@H](O)CN5C(=O)[C@H]([C@@H](C)O)NC4=O)cc3)cc2)cc1  magnesium (adult ICU patients, mITT, serum; dose not given, day 14): 0.6 mmol/L

Repeated from above:
CC(C)(O)c1cc(Nc2cc(Oc3cn(C4CC4)nc3C3CCOCC3)ccn2)ccn1  treatment-emergent adverse events (Nausea; advanced cancer patients, dose escalation; oral, dose not given, 2 weeks on/off, all causality grade ≥3): 3%
C[C@]1(O)C[C@@](N)(c2ccc(-c3nc4n(c3-c3ccccc3)COc3ccncc3-4)cc2)C1  patients with Diarrhea TEAE (human, advanced or metastatic solid tumours; dose not given, all patients, any grade): 23.5%
